Measurements collected from several papers.
Each line is one published result; not all experiments were run side by side. ± marks the error that the study gave.

Structure (SMILES)	test	system	conditions	endpoint	value
CC[C@H](C)[C@H](NC(=O)[C@H](CO)NC(=O)[C@H](CCCNC(=N)N)NC(C)=O)C(=O)N[C@H]1CSSC[C@@H](C(=O)N[C@H](C(N)=O)[C@@H](C)O)NC(=O)[C@H](CCCNC(=N)N)NC(=O)[C@H](Cc2c[nH]cn2)NC(=O)[C@H](C)NC(=O)CNC(=O)[C@H](Cc2c[nH]c3ccccc23)NC(=O)[C@H](CC(=O)O)NC(=O)[C@H](CCC(N)=O)NC(=O)[C@H](Cc2cccc3ccccc23)NC(=O)[C@H](C(C)C)NC1=O	isocratic RP-HPLC, C18	32% acetonitrile, phosphate pH 7.4, 1% TFA	25 °C	retention factor	1.17 ± 0.006
O=C(N[C@H](Cc1c[nH]c2ccccc12)C(=O)Nc1ccncc1)c1ccc(N2CCN(c3ccc(F)cc3F)CC2)cc1F		Swiss Webster mouse, female, brain	oral, 50 mg/kg, 8 h, 20% Kolliphor vehicle	concentration	1260 nM
Cn1cc2cc1C(=O)NC[C@H](N)CC(=O)Nc1cc(n(C)c1)C(=O)Nc1cc(n(C)c1)C(=O)Nc1cc(n(C)c1)C(=O)Nc1cc(n(C)c1)C(=O)NC[C@H](N)CC(=O)Nc1cn(C)c(n1)C(=O)Nc1cn(C)c(n1)C(=O)Nc1cc(n(C)c1)C(=O)N2	dynamic light scattering	0.1% DMSO in PBS	25 °C	critical aggregation concentration	4 µM
CCCOc1ccc(-c2ccc(C#N)cc2)cc1		Sprague-Dawley rat, female, fetus	5000 ng/mL in perfusate, 50 (unit not given), high dose, mixture of 21 LCMs	fetal accumulation	15.8 ± 5.7 ng/g
C=CCN1CC(=O)N2[C@@H](Cc3ccc(O)cc3F)C(=O)N(Cc3cccc(N4CC(N5CCN(CC)CC5)C4)n3)C[C@@H]2N1C(=O)NCc1ccccc1	item: decreased appetite	human advanced solid tumours	concentration not given, dose escalation any grade	treatment-related adverse events	13.9%
COc1cc2c3c(n(CCCN4CCOCC4)c(=O)c2cc1OC)-c1cc2c(cc1C3=O)OCO2		beagle dog, female, plasma	intravenous infusion, 10 mg/m^2, 1 h infusion, vehicle 1	Vz	426 ± 152 L/m²
CCc1cc(C(=O)NC)c2nccc(N3CCc4c(cc(Cn5ccnc5)cc4-c4cn(C)nc4C(F)(F)F)C3=O)c2c1		Sprague Dawley rats	oral, 100 mg/kg once daily, 7 days	serum TBIL level	2.4 ± 0.35 µmol/L
O=C(O)CCC(=O)O.[2H]C([2H])([2H])Oc1cc(C)c2[nH]ccc2c1CN1CC[C@@H](C2CC2)C[C@H]1c1ccc(C(=O)O)cc1	multiple ascending dose	healthy Chinese subjects	50 mg twice daily	subjects with any TEAE	75%
Cc1cc(C)c(CNC(=O)c2cc(Cl)c3c(c2C)O[C@@](C)([C@H]2CC[C@H](N(C)C)CC2)O3)c(=O)[nH]1		human relapsed/refractory NHL	oral, 200 mg once daily, onset day 1 to 14	disease progression grade ≥3	4.2%
O=C(NCCCNc1nc(Nc2cccc(CN3CCOCC3)c2)ncc1C1CC1)C1CCC1	PAMPA	PBS	5 h, pH 7.4	effective permeability	2.6 ×10⁻⁶ cm/s
Cl.[2H]C([2H])([2H])CC(=O)c1cnc(NC(=O)C2CC2)cc1Nc1cccc(-c2ncn(C([2H])([2H])[2H])n2)c1OC		human, fasted, multiple dose	oral, 20 mg once daily, tablet, day 1, geometric mean	AUC(0-tau)	1340 ng·h/mL
O=C(Nc1nc2cccc(-c3ccc(CN4CCS(=O)(=O)CC4)cc3)n2n1)C1CC1	item: immune system disorders	human rheumatoid arthritis patients	oral, 30 mg once daily, 4 weeks, regardless of relatedness	treatment-emergent adverse events	5.9%
CN(C(=O)n1cnc(-c2cccnc2)c1)C1CCCCC1		Wistar rat, cerebellum	oral, 10 mg/kg/day of BIA 10-2474, 4 h, repeated 5 days	concentration	30.1 ± 5.6 ng/g
Nc1nc2c(nc([N+](=O)[O-])n2[C@@H]2O[C@H](CO)[C@@H](O)[C@H]2O)c(=O)[nH]1		citrate phosphate buffer	0.5 mM, pH 2.15, 37 °C	depurination half-life	5.35 h
Cn1cc([C@H]2C[C@H]3CSC(N)=N[C@@]3(c3ccc(F)cc3F)CO2)cn1		mouse	subcutaneous, 10 mg/kg, 13 h	CSF concentration	not detected
C=CC(=O)NC1CCN(c2ncc3ncnc(Nc4ccc(Oc5ccc6c(c5)ncn6C)c(C)c4)c3n2)CC1		healthy male volunteers, plasma	oral, 60 mg, 14C-labelled solution, geometric mean	AUC(0-24h)	10.4 µM·h
COc1ccc2c(c1)CN(C(=O)CCN1CCC(Cc3ccccc3)CC1)CC[S@@+]2[O-]	telemetry	conscious male beagle dogs	intravenous, 2 mg/kg, 1 h	systolic blood pressure	132 ± 11 mmHg

Excerpt of the above:
Structure (SMILES)	test	system	conditions	endpoint	value
COc1ccc2c(c1)CN(C(=O)CCN1CCC(Cc3ccccc3)CC1)CC[S@@+]2[O-]	telemetry	conscious male beagle dogs	intravenous, 2 mg/kg, 1 h	systolic blood pressure	132 ± 11 mmHg
